Measurements pooled from the literature.
A part holds a random share of what one study measured.
Sequence of UniProt P42336 (whole entry, unmodified, looked up): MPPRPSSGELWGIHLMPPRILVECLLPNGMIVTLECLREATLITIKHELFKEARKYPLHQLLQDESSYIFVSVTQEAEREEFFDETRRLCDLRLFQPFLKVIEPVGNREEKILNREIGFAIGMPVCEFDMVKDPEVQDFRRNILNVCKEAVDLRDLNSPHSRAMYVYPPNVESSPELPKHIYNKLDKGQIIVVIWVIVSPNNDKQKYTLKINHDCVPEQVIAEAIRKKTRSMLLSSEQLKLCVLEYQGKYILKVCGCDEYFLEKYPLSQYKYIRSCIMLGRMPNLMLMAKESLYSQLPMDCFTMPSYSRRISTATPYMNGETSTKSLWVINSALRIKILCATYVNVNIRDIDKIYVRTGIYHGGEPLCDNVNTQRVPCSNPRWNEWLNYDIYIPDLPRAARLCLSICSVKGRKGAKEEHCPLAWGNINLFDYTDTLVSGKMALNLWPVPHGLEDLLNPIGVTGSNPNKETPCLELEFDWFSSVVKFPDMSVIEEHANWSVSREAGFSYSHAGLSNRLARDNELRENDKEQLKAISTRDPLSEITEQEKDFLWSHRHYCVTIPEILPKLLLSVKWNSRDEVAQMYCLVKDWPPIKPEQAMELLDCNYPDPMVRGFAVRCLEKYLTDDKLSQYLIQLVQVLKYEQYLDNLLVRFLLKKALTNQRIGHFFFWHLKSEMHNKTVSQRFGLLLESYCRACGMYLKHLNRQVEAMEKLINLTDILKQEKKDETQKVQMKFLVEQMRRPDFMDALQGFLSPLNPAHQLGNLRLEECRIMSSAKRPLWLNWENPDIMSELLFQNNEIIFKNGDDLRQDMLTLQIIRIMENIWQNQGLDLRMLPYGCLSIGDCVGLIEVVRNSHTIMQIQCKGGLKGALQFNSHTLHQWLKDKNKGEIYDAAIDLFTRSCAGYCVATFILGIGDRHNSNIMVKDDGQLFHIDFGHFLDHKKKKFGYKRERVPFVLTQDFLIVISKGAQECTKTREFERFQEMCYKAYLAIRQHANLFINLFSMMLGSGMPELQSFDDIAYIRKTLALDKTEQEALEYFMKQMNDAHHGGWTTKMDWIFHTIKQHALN
Sequence of UniProt Q9H422 (whole entry, looked up): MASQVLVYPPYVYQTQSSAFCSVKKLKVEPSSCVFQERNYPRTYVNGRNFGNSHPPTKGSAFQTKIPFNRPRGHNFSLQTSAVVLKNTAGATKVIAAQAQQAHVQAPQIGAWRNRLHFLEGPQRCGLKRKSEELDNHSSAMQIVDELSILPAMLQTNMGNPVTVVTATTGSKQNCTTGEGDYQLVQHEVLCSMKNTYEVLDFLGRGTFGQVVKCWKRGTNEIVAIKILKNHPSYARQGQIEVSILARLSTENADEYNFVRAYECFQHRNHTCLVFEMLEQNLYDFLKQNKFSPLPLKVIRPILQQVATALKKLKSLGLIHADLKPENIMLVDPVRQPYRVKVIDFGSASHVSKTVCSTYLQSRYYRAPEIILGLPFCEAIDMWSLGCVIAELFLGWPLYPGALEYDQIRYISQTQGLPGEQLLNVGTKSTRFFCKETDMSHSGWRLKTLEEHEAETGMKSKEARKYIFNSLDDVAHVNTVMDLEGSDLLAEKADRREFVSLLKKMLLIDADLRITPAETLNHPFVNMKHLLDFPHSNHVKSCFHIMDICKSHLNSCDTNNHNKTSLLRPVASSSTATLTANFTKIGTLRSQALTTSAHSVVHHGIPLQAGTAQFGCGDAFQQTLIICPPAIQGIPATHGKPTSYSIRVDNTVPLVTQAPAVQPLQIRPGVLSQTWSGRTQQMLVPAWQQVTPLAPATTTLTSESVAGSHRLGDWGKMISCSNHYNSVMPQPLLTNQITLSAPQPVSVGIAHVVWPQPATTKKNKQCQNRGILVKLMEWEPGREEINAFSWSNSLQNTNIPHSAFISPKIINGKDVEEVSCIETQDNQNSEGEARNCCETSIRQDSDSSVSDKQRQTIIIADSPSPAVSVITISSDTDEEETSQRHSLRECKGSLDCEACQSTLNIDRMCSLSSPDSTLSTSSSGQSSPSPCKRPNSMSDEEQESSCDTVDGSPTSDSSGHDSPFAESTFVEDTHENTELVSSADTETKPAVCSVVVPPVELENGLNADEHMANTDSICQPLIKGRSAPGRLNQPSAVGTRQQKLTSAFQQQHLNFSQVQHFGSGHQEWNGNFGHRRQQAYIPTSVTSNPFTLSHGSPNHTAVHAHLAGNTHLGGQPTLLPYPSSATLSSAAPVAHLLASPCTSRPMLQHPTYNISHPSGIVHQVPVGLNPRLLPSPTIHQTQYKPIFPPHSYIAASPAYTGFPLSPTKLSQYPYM
Sequence of UniProt P51956 (whole entry, looked up): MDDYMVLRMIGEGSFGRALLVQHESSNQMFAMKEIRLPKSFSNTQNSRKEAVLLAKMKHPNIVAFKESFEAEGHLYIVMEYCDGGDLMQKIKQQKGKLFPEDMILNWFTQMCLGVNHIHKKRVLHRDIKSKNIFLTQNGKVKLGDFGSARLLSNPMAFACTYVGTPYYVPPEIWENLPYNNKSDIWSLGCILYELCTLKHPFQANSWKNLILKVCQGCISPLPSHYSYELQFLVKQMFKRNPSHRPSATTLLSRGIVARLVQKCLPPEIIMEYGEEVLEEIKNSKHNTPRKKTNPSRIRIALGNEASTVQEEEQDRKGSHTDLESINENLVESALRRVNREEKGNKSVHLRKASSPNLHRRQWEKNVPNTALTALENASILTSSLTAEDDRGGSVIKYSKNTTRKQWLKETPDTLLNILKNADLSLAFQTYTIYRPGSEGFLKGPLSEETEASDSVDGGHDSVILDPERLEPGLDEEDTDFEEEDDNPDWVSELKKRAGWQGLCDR
Sequence of UniProt Q16816 (whole entry, looked up): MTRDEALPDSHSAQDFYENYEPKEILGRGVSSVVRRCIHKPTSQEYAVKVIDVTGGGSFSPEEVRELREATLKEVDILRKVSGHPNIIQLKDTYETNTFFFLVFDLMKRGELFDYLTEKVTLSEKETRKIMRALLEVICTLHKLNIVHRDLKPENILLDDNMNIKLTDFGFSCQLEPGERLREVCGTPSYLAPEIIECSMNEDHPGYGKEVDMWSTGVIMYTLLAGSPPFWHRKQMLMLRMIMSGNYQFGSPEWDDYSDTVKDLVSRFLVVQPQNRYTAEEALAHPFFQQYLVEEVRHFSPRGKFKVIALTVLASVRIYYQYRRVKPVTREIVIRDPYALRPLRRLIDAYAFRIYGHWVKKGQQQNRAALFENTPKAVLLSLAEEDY
Sequence of UniProt Q8IU85 (whole entry, looked up): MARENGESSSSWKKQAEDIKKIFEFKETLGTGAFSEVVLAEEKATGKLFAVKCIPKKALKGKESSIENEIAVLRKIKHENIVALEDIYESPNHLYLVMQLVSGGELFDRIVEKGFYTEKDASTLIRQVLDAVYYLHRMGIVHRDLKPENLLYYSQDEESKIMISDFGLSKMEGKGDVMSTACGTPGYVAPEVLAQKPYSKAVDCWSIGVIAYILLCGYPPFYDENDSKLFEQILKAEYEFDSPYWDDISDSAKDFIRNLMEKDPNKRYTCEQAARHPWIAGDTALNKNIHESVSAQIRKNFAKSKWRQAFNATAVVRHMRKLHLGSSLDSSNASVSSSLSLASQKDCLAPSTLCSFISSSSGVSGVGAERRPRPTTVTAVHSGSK
Sequence of UniProt Q09013 (whole entry, looked up): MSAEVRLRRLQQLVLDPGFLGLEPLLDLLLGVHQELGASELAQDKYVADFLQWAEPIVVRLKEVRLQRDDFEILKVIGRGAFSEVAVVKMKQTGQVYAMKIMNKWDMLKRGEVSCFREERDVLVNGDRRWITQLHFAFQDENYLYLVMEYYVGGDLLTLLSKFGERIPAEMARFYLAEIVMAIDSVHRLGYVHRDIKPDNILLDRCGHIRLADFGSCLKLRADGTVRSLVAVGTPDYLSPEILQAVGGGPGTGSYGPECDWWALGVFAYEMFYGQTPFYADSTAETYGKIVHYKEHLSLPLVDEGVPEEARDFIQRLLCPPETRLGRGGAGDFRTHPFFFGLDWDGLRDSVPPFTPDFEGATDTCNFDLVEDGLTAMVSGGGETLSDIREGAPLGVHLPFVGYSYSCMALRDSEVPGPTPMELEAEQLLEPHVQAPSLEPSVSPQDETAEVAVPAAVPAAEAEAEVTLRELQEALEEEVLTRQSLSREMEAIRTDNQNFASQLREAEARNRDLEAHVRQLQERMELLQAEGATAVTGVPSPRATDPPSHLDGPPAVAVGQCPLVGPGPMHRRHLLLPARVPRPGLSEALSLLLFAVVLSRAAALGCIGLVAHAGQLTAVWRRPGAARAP
Sequence of UniProt Q8TDC3 (whole entry, looked up): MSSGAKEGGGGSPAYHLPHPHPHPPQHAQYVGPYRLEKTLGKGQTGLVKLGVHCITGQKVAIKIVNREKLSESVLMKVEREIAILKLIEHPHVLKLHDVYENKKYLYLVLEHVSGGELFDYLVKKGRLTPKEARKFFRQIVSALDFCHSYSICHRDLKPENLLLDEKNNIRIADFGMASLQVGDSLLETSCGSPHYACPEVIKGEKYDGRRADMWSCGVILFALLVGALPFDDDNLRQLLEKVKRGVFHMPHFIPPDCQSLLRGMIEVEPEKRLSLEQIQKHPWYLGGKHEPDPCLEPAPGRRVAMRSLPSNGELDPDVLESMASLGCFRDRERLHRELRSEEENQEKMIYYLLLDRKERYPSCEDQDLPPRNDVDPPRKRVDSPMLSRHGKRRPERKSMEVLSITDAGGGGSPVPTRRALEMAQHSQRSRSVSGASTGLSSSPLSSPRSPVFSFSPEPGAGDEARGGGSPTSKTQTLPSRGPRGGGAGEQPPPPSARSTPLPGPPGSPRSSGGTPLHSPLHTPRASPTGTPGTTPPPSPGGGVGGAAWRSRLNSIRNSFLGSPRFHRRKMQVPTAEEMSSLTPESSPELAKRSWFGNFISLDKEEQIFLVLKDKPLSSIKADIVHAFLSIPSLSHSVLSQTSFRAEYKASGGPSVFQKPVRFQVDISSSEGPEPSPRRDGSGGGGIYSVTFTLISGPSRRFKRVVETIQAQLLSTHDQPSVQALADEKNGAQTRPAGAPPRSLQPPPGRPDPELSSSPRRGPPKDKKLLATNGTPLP

Sample 1
Structure (SMILES): O=C(NCCCC1CCCCC1)c1ccc(CNC(=O)c2cnn(-c3ccccc3)c2C(F)(F)F)cc1
Tested at: 0.1 µM
PIK3CA (Homo sapiens, UniProt P42336); cell-free assay, competition with immobilised ligand — remaining binding: 100%.
It gave 100% for remaining binding (NEK3 (Homo sapiens, UniProt P51956); cell-free assay, competition with immobilised ligand).
The remaining binding was 88% (MAP4K5 (Homo sapiens, UniProt Q9Y4K4); cell-free assay, competition with immobilised ligand).
For PAK1 (Homo sapiens, UniProt Q13153); cell-free assay, competition with immobilised ligand: remaining binding read 92%.
EPHB2 (Homo sapiens, UniProt P29323); cell-free assay, competition with immobilised ligand — remaining binding: 100%.
It gave 100% for remaining binding (MARK1 (Homo sapiens, UniProt Q9P0L2); cell-free assay, competition with immobilised ligand).
For LTK (Homo sapiens, UniProt P29376); cell-free assay, competition with immobilised ligand: remaining binding read 100%.
It gave 100% for remaining binding (PHKG1 (Homo sapiens, UniProt Q16816); cell-free assay, competition with immobilised ligand).
The remaining binding was 100% (MAP3K20 (Homo sapiens, UniProt Q9NYL2); cell-free assay, competition with immobilised ligand).
PLK2 (Homo sapiens, UniProt Q9NYY3); cell-free assay, competition with immobilised ligand — remaining binding: 100%.
It gave 93% for remaining binding (STK26 (Homo sapiens, UniProt Q9P289); cell-free assay, competition with immobilised ligand).
For PRKAA1 (Homo sapiens, UniProt Q13131); cell-free assay, competition with immobilised ligand: remaining binding read 100%.
Ribosomal protein S6 kinase alpha-5, N-terminal kinase domain (RPS6KA5, Homo sapiens, UniProt O75582); cell-free assay, competition with immobilised ligand — remaining binding: 100%.
The remaining binding was 100% (NUAK1 (Homo sapiens, UniProt O60285); cell-free assay, competition with immobilised ligand).
It gave 99% for remaining binding (CDC42BPG (Homo sapiens, UniProt Q6DT37); competition binding).
The remaining binding was 100% (Non-receptor tyrosine-protein kinase TYK2, JH1 (TYK2, Homo sapiens, UniProt P29597); cell-free assay, competition with immobilised ligand).
For MAP3K5 (Homo sapiens, UniProt Q99683); cell-free assay, competition with immobilised ligand: remaining binding read 91%.
For EGFR (Homo sapiens, UniProt P00533, del746-750); cell-free assay, competition with immobilised ligand: remaining binding read 100%.
The remaining binding was 92% (MYLK3 (Homo sapiens, UniProt Q32MK0); cell-free assay, competition with immobilised ligand).
It gave 67% for remaining binding (PIK3CA (Homo sapiens, UniProt P42336, Q546K); cell-free assay, competition with immobilised ligand).
For EGFR (Homo sapiens, UniProt P00533, del752-759); cell-free assay, competition with immobilised ligand: remaining binding read 99%.
It gave 100% for remaining binding (DCLK1 (Homo sapiens, UniProt O15075); cell-free assay, competition with immobilised ligand).
For FYN (Homo sapiens, UniProt P06241); cell-free assay, competition with immobilised ligand: remaining binding read 86%.
Ribosomal protein S6 kinase alpha-2, N-terminal kinase domain (RPS6KA2, Homo sapiens, UniProt Q15349); cell-free assay, competition with immobilised ligand — remaining binding: 100%.
For MAP3K10 (Homo sapiens, UniProt Q02779); cell-free assay, competition with immobilised ligand: remaining binding read 87%.

Sample 2
Target: Diamine acetyltransferase 1 (Homo sapiens, UniProt P21673)
Action: inhibitor
Tested at: 10 µM
Baseline: control
Residues (P21673 1-171): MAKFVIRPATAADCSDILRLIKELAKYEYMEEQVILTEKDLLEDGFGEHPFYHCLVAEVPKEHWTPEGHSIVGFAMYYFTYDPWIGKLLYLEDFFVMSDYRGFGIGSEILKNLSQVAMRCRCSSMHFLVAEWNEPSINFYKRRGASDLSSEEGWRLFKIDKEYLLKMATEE
`CC(=O)CCc1ccc(OC(C)=O)cc1` has a remaining activity of 88%.
`O=C(O)C1CCCCN1` (stereo not drawn) has a remaining activity of 101%.
With `CCCCC/C=C/C/C=C/CCCCCCCCCC(=O)O` the remaining activity was 97.6%.
The remaining activity of `CCCCCCCCCC=O` is reported as 80.5%.
`C[C@@H]1CC[C@H]2C(C)(C)[C@H]3C[C@@]12CC[C@@]3(C)O` has a remaining activity of 96%.
With `CC1(C)C[C@@H](O)[C@]2(C)CC[C@]3(C)C(=CC[C@@H]4[C@@]5(C)CC[C@H](O)[C@](C)(CO)[C@@H]5CC[C@]43C)[C@@H]2C1` the remaining activity was 123%.
The remaining activity of `COc1ccc(-c2coc3cc(O)c(OC)c(O)c3c2=O)cc1` is reported as 105%.
`Cc1c[nH]c2ccccc12` gave a remaining activity of 109%.
For `COc1ccc(-c2cc(=O)c3c(O)cc(O[C@@H]4O[C@H](CO[C@@H]5O[C@@H](C)[C@H](O)[C@@H](O)[C@H]5O)[C@@H](O)[C@H](O)[C@H]4O)cc3o2)cc1O`, the remaining activity was 101%.
`O=C(O[C@@H]1O[C@@H]2COC(=O)c3cc(O)c(O)c(O)c3-c3c(cc(O)c(O)c3O)C(=O)O[C@H]([C@H]1O)[C@@H]2O)c1cc(O)c(O)c(O)c1` gave a remaining activity of 91.8%.
For `COc1ccc(-c2coc3cc(O[C@@H]4O[C@H](CO)[C@@H](O)[C@H](O)[C@H]4O)ccc3c2=O)cc1O`, the remaining activity was 102%.
`COc1cc(O)c2c(=O)c(OC)c(-c3ccc(OC)c(OC)c3)oc2c1` gave a remaining activity of 96.4%.
`O=C(O)[C@@H]1C[C@@H](O)CN1` gave a remaining activity of 94.6%.
For `CCCCCCCCCCCCCCCCCCCCCCO`, the remaining activity was 93.6%.
With `C=C(C)[C@H]1CC=C(C)C(=O)C1` the remaining activity was 99.5%.
With `COCCc1ccc(O)cc1` the remaining activity was 95.9%.
With `COc1cc(C=O)ccc1OC(C)=O` the remaining activity was 90.4%.
For `CCc1ccc(O)cc1`, the remaining activity was 88.4%.

Sample 3
Compound: CC(C)(C)n1nc(Cc2cccc3ccccc23)c2c(N)ncnc21
Observed: enzyme activity
Action: inhibitor
Tested at: 0.5 µM
Baseline: control
For NTRK3 (Homo sapiens, UniProt Q16288): remaining activity read 92.8%.
RET (Homo sapiens, UniProt P07949) — remaining activity: 25.5%.
It gave 90.4% for remaining activity (BRSK1 (Homo sapiens, UniProt Q8TDC3)).
It gave 87.8% for remaining activity (MAP3K2 (Homo sapiens, UniProt Q9Y2U5)).
ROS1 (Homo sapiens, UniProt P08922) — remaining activity: 87.9%.
It gave 98.6% for remaining activity (Aurora kinase A (AURKA, Homo sapiens, UniProt O14965)).
It gave 98.7% for remaining activity (GRK5 (Homo sapiens, UniProt P34947)).
DMPK (Homo sapiens, UniProt Q09013) — remaining activity: 93.2%.
It gave 104% for remaining activity (CAMK1G (Homo sapiens, UniProt Q96NX5)).
It gave 100% for remaining activity (CDK7 (Homo sapiens, UniProt P50613)).
For SLK (Homo sapiens, UniProt Q9H2G2): remaining activity read 94.9%.
CAMK1D (Homo sapiens, UniProt Q8IU85) — remaining activity: 105%.
The remaining activity was 67.8% (EGFR (Homo sapiens, UniProt P00533)).
The remaining activity was 106% (PKN2 (Homo sapiens, UniProt Q16513)).
For NEK9 (Homo sapiens, UniProt Q8TD19): remaining activity read 105%.
It gave 95.6% for remaining activity (ROCK2 (Homo sapiens, UniProt O75116)).
For PRKD1 (Homo sapiens, UniProt Q15139): remaining activity read 26.2%.
For DYRK4 (Homo sapiens, UniProt Q9NR20): remaining activity read 98.5%.
HIPK3 (Homo sapiens, UniProt Q9H422) — remaining activity: 96.6%.
It gave 106% for remaining activity (PTK2B (Homo sapiens, UniProt Q14289)).
For MAPK10 (Homo sapiens, UniProt P53779): remaining activity read 106%.
It gave 99.4% for remaining activity (Cyclin-dependent kinase 2, with cyclin A (CDK2, Homo sapiens, UniProt P24941)).
For MAP3K8 (Homo sapiens, UniProt P41279): remaining activity read 94.2%.

Sample 4
Structure (SMILES): N=C(N)NC(=O)c1cnn(-c2cccc3ncccc23)c1C1CC1
Action: agonist
Tested at: 10 µM
Baseline: untreated
For Secretin receptor (SCTR, Homo sapiens, UniProt P47872); β-arrestin recruitment, PRESTO-Tango: “fold over basal” read 1.31.
HCRTR2 (Homo sapiens, UniProt O43614); β-arrestin recruitment, PRESTO-Tango — “fold over basal”: 0.8 fold.
It gave 1.82 for “fold over basal” (GPR4 (Homo sapiens, UniProt P46093); β-arrestin recruitment, PRESTO-Tango).
Adhesion G protein-coupled receptor A2 (ADGRA2, Homo sapiens, UniProt Q96PE1); β-arrestin recruitment, PRESTO-Tango — “fold over basal”: 0.92.
EDNRB (Homo sapiens, UniProt P24530); β-arrestin recruitment, PRESTO-Tango — “fold over basal”: 0.92.
GRM5 (Homo sapiens, UniProt P41594); β-arrestin recruitment, PRESTO-Tango — “fold over basal”: 0.99 fold.
Retinoic acid-induced protein 3 (GPRC5A, Homo sapiens, UniProt Q8NFJ5); β-arrestin recruitment, PRESTO-Tango — “fold over basal”: 1.08.
It gave 0.77 for “fold over basal” (FFAR4 (Homo sapiens, UniProt Q5NUL3); β-arrestin recruitment, PRESTO-Tango).
For PTGER1 (Homo sapiens, UniProt P34995); β-arrestin recruitment, PRESTO-Tango: “fold over basal” read 1.
It gave 1.17 for “fold over basal” (Probable G-protein coupled receptor 141 (GPR141, Homo sapiens, UniProt Q7Z602); β-arrestin recruitment, PRESTO-Tango).
For ACKR3 (Homo sapiens, UniProt P25106); β-arrestin recruitment, PRESTO-Tango: “fold over basal” read 1.33.
It gave 15.2 for “fold over basal” (Nociceptin receptor (OPRL1, Homo sapiens, UniProt P41146); PRESTO-Tango arrestin recruitment).
For G-protein coupled receptor 78 (GPR78, Homo sapiens, UniProt Q96P69); β-arrestin recruitment, PRESTO-Tango: “fold over basal” read 0.89.
The “fold over basal” was 1.01 (MCHR2 (Homo sapiens, UniProt Q969V1); β-arrestin recruitment, PRESTO-Tango).
ADRB1 (Homo sapiens, UniProt P08588); β-arrestin recruitment, PRESTO-Tango — “fold over basal”: 1.26.

Repeated from above (sample 3):
It gave 106% for remaining activity (PTK2B (Homo sapiens, UniProt Q14289)).
For DYRK4 (Homo sapiens, UniProt Q9NR20): remaining activity read 98.5%.
CAMK1D (Homo sapiens, UniProt Q8IU85) — remaining activity: 105%.
It gave 100% for remaining activity (CDK7 (Homo sapiens, UniProt P50613)).
It gave 98.7% for remaining activity (GRK5 (Homo sapiens, UniProt P34947)).
For MAPK10 (Homo sapiens, UniProt P53779): remaining activity read 106%.
For NTRK3 (Homo sapiens, UniProt Q16288): remaining activity read 92.8%.
For MAP3K8 (Homo sapiens, UniProt P41279): remaining activity read 94.2%.
DMPK (Homo sapiens, UniProt Q09013) — remaining activity: 93.2%.
For NEK9 (Homo sapiens, UniProt Q8TD19): remaining activity read 105%.
RET (Homo sapiens, UniProt P07949) — remaining activity: 25.5%.
It gave 98.6% for remaining activity (Aurora kinase A (AURKA, Homo sapiens, UniProt O14965)).
